Measured values pooled from the literature.
Parts stem from different laboratories: compare values within a part only.
Chain of UniProt P22455 (whole entry, looked up): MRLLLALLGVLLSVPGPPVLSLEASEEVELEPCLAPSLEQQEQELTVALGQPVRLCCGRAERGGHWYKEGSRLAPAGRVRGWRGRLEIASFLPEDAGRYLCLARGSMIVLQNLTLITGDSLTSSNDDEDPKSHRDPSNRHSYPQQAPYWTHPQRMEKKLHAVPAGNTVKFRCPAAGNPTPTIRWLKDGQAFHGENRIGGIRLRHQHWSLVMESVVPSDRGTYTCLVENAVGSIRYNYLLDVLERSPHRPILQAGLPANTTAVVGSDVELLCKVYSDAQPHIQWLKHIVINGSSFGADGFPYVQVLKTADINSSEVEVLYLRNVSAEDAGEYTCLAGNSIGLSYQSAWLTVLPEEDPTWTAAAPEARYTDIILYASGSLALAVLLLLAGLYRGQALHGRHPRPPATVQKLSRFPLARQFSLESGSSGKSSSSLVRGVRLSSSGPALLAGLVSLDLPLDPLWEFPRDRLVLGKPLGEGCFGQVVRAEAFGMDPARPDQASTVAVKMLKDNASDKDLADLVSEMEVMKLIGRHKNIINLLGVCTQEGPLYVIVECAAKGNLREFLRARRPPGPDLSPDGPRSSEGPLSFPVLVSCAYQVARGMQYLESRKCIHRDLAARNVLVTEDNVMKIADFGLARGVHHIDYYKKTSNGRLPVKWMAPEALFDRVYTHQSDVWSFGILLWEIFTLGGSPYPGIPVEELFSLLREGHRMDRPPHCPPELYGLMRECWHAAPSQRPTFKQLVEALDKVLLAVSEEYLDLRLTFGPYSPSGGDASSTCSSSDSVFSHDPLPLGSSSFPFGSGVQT
Chain of UniProt Q9NRH2 (whole entry, looked up): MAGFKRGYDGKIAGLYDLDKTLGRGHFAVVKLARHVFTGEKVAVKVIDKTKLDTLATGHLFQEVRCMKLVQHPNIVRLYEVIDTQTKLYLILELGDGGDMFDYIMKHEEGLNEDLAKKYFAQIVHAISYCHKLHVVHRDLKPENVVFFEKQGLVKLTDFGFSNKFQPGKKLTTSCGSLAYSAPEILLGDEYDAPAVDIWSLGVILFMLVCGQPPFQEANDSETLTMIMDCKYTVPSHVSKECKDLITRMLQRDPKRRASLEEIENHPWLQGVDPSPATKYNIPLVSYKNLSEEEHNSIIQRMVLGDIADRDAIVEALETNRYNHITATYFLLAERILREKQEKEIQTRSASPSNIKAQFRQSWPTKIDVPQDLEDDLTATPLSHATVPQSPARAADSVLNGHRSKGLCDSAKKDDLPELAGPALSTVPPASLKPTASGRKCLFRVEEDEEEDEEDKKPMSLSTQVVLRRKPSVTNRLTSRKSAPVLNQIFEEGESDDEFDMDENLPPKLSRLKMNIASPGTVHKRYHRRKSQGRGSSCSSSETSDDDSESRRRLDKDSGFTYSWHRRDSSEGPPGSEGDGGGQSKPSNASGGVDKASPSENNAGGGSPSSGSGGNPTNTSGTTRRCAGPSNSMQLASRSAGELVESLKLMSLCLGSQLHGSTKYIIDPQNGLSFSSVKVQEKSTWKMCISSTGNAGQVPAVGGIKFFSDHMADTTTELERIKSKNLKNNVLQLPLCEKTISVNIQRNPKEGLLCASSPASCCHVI
Chain of UniProt Q00532 (whole entry, looked up): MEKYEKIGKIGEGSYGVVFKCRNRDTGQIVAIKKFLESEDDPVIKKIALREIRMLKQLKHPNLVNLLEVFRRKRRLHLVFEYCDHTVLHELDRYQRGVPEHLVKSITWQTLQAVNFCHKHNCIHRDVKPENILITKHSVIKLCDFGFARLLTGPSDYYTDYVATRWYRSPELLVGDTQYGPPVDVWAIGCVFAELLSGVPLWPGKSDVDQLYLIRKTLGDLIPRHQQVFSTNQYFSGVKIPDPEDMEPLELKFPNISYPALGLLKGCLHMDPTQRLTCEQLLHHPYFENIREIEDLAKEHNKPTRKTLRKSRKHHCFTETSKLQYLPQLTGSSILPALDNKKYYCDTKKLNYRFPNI
Chain of UniProt Q13976 (whole entry, looked up): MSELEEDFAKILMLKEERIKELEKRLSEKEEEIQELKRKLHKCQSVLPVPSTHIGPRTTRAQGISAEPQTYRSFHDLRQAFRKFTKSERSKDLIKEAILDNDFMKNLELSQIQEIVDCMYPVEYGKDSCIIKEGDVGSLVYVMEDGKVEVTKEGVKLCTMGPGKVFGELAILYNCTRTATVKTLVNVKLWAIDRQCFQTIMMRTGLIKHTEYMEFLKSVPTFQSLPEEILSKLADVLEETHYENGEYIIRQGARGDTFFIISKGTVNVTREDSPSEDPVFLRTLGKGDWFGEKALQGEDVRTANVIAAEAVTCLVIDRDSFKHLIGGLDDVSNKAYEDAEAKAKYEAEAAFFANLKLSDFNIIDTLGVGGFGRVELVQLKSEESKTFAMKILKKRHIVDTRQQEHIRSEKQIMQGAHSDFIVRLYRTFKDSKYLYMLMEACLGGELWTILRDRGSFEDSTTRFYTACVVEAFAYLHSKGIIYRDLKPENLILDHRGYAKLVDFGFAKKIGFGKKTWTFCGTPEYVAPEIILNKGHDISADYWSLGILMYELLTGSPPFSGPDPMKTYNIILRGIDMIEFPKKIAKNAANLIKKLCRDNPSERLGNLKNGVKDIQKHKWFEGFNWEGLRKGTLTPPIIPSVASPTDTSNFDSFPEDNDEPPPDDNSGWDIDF
Chain of UniProt Q16620 (whole entry, looked up): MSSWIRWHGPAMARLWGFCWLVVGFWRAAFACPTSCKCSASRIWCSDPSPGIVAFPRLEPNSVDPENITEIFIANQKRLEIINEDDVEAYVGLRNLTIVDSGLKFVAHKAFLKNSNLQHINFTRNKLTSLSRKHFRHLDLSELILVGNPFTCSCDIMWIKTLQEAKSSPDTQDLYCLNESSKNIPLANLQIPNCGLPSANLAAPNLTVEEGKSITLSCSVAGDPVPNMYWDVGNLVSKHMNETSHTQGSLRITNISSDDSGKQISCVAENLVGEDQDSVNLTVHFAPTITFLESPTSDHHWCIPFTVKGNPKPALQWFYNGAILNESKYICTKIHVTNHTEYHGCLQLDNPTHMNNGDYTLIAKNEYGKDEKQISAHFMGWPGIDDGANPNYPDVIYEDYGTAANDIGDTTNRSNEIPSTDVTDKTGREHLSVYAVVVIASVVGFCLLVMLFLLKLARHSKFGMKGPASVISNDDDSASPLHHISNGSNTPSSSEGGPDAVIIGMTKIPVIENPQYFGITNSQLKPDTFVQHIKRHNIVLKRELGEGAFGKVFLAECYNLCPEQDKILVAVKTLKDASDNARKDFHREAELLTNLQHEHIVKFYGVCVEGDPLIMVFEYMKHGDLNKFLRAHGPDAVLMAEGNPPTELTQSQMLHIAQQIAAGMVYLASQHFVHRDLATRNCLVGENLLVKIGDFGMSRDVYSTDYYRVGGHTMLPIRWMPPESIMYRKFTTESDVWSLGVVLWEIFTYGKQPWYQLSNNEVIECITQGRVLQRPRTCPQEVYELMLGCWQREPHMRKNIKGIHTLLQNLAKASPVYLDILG
Chain of UniProt Q07912 (whole entry, looked up): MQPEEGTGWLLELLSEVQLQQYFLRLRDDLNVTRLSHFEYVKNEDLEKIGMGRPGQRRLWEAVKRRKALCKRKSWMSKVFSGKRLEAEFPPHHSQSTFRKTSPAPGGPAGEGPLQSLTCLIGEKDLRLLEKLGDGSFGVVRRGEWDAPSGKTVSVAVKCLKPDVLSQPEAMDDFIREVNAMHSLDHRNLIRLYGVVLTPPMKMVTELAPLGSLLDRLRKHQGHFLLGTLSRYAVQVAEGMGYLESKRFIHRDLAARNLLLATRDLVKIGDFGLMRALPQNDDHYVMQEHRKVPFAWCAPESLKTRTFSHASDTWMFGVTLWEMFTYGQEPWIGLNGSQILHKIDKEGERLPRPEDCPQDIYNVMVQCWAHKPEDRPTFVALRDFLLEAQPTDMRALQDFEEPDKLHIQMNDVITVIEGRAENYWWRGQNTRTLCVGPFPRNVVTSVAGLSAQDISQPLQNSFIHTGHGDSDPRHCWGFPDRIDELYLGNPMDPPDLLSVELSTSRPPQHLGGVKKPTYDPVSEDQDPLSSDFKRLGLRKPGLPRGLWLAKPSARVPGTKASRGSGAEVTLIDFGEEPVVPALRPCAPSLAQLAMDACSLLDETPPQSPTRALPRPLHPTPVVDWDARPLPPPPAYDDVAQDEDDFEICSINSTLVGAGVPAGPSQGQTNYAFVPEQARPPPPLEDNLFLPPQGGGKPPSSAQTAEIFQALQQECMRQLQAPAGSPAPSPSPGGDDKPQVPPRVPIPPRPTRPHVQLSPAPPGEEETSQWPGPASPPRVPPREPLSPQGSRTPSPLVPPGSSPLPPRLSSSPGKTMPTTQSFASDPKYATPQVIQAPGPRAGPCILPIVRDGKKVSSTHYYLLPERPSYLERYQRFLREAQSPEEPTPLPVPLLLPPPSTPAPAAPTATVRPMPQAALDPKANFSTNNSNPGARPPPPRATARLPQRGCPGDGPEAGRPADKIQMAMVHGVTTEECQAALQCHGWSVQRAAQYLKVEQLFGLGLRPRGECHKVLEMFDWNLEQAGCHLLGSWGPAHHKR

Series 1
Organism: Plasmodium berghei
Action: inhibitor
Cell line: Huh-7
Strain: GFP-expressing sporozoites, liver stage
Tested at: 10 µM
Time: 24 h
Relative to: untreated control
`CCC(=O)NCC[C@@H]1CCc2ccc3c(c21)CCO3` gave an infection rate of 1.03%.
For `Oc1c(Cl)cc(Cl)c(Cl)c1Cc1c(O)c(Cl)cc(Cl)c1Cl`, the infection rate was 0.28%.
`CCCCC(=O)O[C@H]1CC[C@H]2[C@@H]3CCc4cc(O)ccc4[C@H]3CC[C@]12C` gave an infection rate of 119%.
`C=C[C@@]1(C)CC(=O)[C@]2(O)[C@@]3(C)[C@@H](O)CCC(C)(C)[C@@H]3[C@H](O)[C@H](OC(C)=O)[C@@]2(C)O1` has an infection rate of 64.5%.

Series 2
Structure (SMILES): O=S(=O)(NC1CCC(c2cc(F)ccc2F)(S(=O)(=O)c2ccc(Cl)cc2)CC1)C(F)(F)F (stereo not shown)
Observed: cell-free assay
Method: competition with immobilised ligand
Tested at: 1 µM
It gave 100% for remaining binding (cGMP-dependent protein kinase 1 (PRKG1, Homo sapiens, UniProt Q13976)).
The remaining binding was 100% (Cyclin-dependent kinase-like 1 (CDKL1, Homo sapiens, UniProt Q00532)).
For Fibroblast growth factor receptor 4 (FGFR4, Homo sapiens, UniProt P22455): remaining binding read 100%.
The remaining binding was 100% (SNF-related serine/threonine-protein kinase (SNRK, Homo sapiens, UniProt Q9NRH2)).
Serine/threonine-protein kinase TAO1 (TAOK1, Homo sapiens, UniProt Q7L7X3) — remaining binding: 100%.
Casein kinase I isoform alpha (CSNK1A1, Homo sapiens, UniProt P48729) — remaining binding: 100%.
For Epidermal growth factor receptor (EGFR, Homo sapiens, UniProt P00533, del752-759): remaining binding read 100%.
Activated CDC42 kinase 1 (TNK2, Homo sapiens, UniProt Q07912) — remaining binding: 96%.
BDNF/NT-3 growth factors receptor (NTRK2, Homo sapiens, UniProt Q16620) — remaining binding: 83%.
The remaining binding was 100% (Ribosomal protein S6 kinase alpha-4, C-terminal kinase domain (RPS6KA4, Homo sapiens, UniProt O75676)).
It gave 100% for remaining binding (Mast/stem cell growth factor receptor Kit (KIT, Homo sapiens, UniProt P10721, A829P)).

Series 3
Target: Ras GTPase-activating protein-binding protein 1, C-terminal RGG region (G3BP1, Homo sapiens, UniProt Q13283)
Chain of UniProt Q13283 (whole entry, looked up): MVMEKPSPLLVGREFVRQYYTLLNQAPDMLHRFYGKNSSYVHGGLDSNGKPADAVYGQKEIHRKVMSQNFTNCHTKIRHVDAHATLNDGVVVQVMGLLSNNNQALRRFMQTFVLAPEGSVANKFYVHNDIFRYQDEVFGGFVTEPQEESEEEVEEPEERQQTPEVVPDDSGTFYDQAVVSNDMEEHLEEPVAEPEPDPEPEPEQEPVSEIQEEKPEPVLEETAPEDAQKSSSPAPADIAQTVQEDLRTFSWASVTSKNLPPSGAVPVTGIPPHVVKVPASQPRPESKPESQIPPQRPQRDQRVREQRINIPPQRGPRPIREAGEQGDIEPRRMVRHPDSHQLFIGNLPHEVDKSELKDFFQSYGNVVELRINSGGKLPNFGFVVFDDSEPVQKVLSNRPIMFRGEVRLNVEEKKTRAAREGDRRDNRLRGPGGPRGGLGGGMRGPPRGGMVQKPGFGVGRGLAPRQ
Method: RNA Bind-n-Seq
Molecule type: RNA
Sample: in vitro
Tested at: 1 µM
Notes: whole 134-nt RNA, ends assumed
Added: 150 mM KCl
Relative to: input library
Reading: higher = stronger binding
Constant ends, left off below: GGGAGUUCUACAGUCCGACGAUC … UGGAAUUCUCGGGUGUCAAGG
`UAACUUUAGAGGAGGAUCUGAUGGAUAUGGCAGUGGACGUGGAUUUGGGGAUGGCUCUAAUGGGUAUGGAGGAGGACCUGGAGGUGGCAA` gave a log2 enrichment of -1.23.
`AAGUCCUGUGCUACACAUCGUAUGUACCGAAUCGGGGUGGGGUGGGGUUUUUGGGGAAAGUAUUAUGUUACGCCGUUCGGAUCUGCACUU` gave a log2 enrichment of 1.4.
With `GUCCUGUGCUACACAUCGUAUGUACCGAAUCGGGUUUUUGGGUUUGGGAAAAAAAGGGAAAGUAUUAUGUUACGCCGUUCGGAUCUGCAC` the log2 enrichment was -0.886.
With `UGGGAGGUGGAUUUUGUUUAUUUUUUUAGCUCAUUUCCAGGGGUGGGAAAUUUUUUUUAAUAUGUGUCAUGAAUAAAGUUGUUUUUGAAA` the log2 enrichment was 2.63.
The log2 enrichment of `AGUCCUGUGCUACACAUCGUAUGUACCGAAUCGGAAAAAGGGAAAAAGGGAAAAAGGAAAGUAUUAUGUUACGCCGUUCGGAUCUGCACU` is reported as -1.76.
With `UAGCUUUAGAGGAGGAUCUGAUGGAUAUGGCAGUGGACGUGGAUUUGGGGAUGGCUAUAAUGGGUAUGGAGGAGGACCUGGAGGUGGCAA` the log2 enrichment was -1.18.
`GCAGGAAGUAAAAACAAAUGGAAAUGCUUCGGAUAGUGGCAGGGGUGGGGGUUGCUAAGGAAGGGGUGGGAUGGGAGUGGGUAAAGAGUU` gave a log2 enrichment of 1.68.
For `CCUCAAGUCCUGUGCUACACAUCGUAUGUACCGAAUCGGGCCGGCCGGGCCGGAAAGUAUUAUGUUACGCCGUUCGGAUCUGCACUUCCA`, the log2 enrichment was -1.02.

Further values, each from its own experiment
Organism: Sarcocystis neurona
Observed: parasite growth
Tested at: 10 µM
Time: 96 h
Notes: first screen
With `C[C@]12C=CC(=O)C=C1CC[C@@H]1[C@@H]2C(=O)C[C@@]2(C)[C@H]1CC[C@]2(O)C(=O)CO` the inhibition was -18.9%.
With `COc1cc2nc(N(C)CCCNC(=O)C3CCCO3)nc(N)c2cc1OC` (stereo not shown) the inhibition was 8.2%.

Repeated from above (series 3):
`AAGUCCUGUGCUACACAUCGUAUGUACCGAAUCGGGGUGGGGUGGGGUUUUUGGGGAAAGUAUUAUGUUACGCCGUUCGGAUCUGCACUU` gave a log2 enrichment of 1.4.
With `GUCCUGUGCUACACAUCGUAUGUACCGAAUCGGGUUUUUGGGUUUGGGAAAAAAAGGGAAAGUAUUAUGUUACGCCGUUCGGAUCUGCAC` the log2 enrichment was -0.886.
